Results collected from several papers.
Every numbered part comes from another study and shows a few of its results, in no order. Changes are numbered by the printed parent chain.

Set 1
Target: ABI1, truncated, D143A, DHFR fusion (Arabidopsis thaliana)
Method: DHFR PCA, deep sequencing
Sample: yeast
Notes: methotrexate growth selection, single substitutions
Together with: (+)-ABA 4.8 µM
Reference: wild-type fitted maximum
Reading: higher = stronger binding
Endpoint: relative binding score
Starting sequence: PYL1, truncated, DHFR fusion (Arabidopsis thaliana); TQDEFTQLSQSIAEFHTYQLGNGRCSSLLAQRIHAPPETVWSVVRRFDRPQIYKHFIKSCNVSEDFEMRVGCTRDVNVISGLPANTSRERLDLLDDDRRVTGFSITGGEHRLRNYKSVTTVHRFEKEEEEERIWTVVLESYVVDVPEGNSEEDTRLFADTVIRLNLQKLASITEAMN; partner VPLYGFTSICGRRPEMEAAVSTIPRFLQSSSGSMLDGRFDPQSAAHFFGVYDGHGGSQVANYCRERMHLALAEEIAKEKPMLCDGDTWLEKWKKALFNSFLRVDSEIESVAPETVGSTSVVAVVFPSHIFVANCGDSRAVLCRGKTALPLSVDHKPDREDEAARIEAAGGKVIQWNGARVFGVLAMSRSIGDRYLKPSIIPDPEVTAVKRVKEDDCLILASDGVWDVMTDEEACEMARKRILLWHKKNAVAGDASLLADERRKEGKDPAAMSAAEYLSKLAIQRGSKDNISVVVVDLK
D95Y: 0.884%
T119G: -6.81%
V137L: 2.42%
R46S: 49.5%
T173F: 19.2%
A158M: 35.9%
R49M: 65%
D144W: -6.22%
R155C: 45.8%
H110W: 45.3%
S150Q: 19.9%
Y18F: 27.6%
C72T: 54.3%
E152C: 45.6%
E131N: 88.4%
E67D: 70.4%
S59A: 59.8%
E139A: 4.49%
S42G: 69.8%
T119Y: -16.9%
S11E: 86.7%
F47K: -4.14%
S150A: 9.02%
D95W: 4.84%
G21H: 63%

Set 2
Target: Ras GTPase-activating protein-binding protein 1, full length (G3BP1, Homo sapiens, UniProt Q13283)
Sequence of UniProt Q13283 (whole entry, looked up): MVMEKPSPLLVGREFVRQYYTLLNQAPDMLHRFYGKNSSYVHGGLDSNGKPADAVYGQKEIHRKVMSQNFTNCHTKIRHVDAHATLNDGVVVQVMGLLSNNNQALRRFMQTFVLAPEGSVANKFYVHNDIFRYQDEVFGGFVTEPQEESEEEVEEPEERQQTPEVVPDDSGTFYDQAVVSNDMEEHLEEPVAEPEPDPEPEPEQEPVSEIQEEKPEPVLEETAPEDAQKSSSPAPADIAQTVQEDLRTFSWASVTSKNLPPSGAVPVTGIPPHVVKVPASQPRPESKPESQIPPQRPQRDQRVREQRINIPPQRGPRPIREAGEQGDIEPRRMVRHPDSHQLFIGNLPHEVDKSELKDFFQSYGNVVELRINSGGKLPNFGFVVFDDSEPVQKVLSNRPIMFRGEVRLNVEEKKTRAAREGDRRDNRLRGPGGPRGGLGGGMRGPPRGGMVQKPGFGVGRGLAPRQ
Method: RNA Bind-n-Seq
Form: RNA
Sample: in vitro
Concentration: 200 nM
Notes: whole 134-nt RNA, ends assumed
Together with: 150 mM KCl
Reference: input library
Reading: higher = stronger binding
Endpoint: log2 enrichment
Constant ends, left off below: GGGAGUUCUACAGUCCGACGAUC … UGGAAUUCUCGGGUGUCAAGG
UCCUGUGCUACACAUCGUAUGUACCGAAUCGGGCCCCCGGGGCCCCCGGGCCCCCGGGGAAAGUAUUAUGUUACGCCGUUCGGAUCUGCA: -0.768
CACAGACAACACGCACCCACACAGACACAGAGGGAAGGGGUUGGGAUGGGGACAGGGUGCACAGCAGGGCGUGGUAGGACCCCAGCCCCU: 1.95
CUCAAGUCCUGUGCUACACAUCGUAUGUACCGAAUCGGGCCGGCCGGGCCGGGGAAAGUAUUAUGUUACGCCGUUCGGAUCUGCACUUCC: -0.269
AGUCCUGUGCUACACAUCGUAUGUACCGAAUCAAACCCAAAUUUAAACCCCCCCAAAAAAGUAUUAUGUUACGCCGUUCGGAUCUGCACU: -0.444
UUAAGGGAAUCUAUUGCUGAACACAAACCUCAUAUUGACAAACUACUAAAGAUAGGCCCACAACUAAAGGAAUUAAACCCUGAGGAAGGG: -0.241
UGUCCCAGGGAACGCCGGUGCAGAUGUGCUUCUUGUGGGCUCAGAGGCCUUCGUGCUGCUGGACGGGCAGGAGCUGACGCCUCGCUGGAC: -1.52
GUCCUGUGCUACACAUCGUAUGUACCGAAUCGGGGUUUUGGGGUUUUGGGGUUUUGGGAAAGUAUUAUGUUACGCCGUUCGGAUCUGCAC: -0.0631
UCAAGUCCUGUGCUACACAUCGUAUGUACCGAAUCGGUUUGGAAAAAGGAAAGGAAAGUAUUAUGUUACGCCGUUCGGAUCUGCACUUCC: -0.725
CCUGUGCUACACAUCGUAUGUACCGAAUCGGGUUUUUGGGAAAAAAAGGGUUUUUUUGGGAAAGUAUUAUGUUACGCCGUUCGGAUCUGC: -0.954
AAGUCCUGUGCUACACAUCGUAUGUACCGAAUCGGGGCCCGGGGCCCGGGCCCGGGGAAAGUAUUAUGUUACGCCGUUCGGAUCUGCACU: -1.35

Set 3
Target: Interferon regulatory factor 7, full length, phosphomimetic (IRF7, Homo sapiens, UniProt Q92985, residues 1-503, S471D/S472D/S475D/S476D/S477D/S483D/S484D/S487D)
Method: protein-binding microarray
Form: double-stranded DNA, one strand shown
Sample: in vitro
Concentration: 2200 nM top
Notes: 60-bp whole probe
Together with: salmon DNA 0.4 mg/ml
Reference: random background probes
Reading: higher = stronger binding
Endpoint: fitted relative affinity
Constant ends, left off below: GCCTAGCAC … GTCTTGATTCGCTTGACGCTGCTG
Construct (chain): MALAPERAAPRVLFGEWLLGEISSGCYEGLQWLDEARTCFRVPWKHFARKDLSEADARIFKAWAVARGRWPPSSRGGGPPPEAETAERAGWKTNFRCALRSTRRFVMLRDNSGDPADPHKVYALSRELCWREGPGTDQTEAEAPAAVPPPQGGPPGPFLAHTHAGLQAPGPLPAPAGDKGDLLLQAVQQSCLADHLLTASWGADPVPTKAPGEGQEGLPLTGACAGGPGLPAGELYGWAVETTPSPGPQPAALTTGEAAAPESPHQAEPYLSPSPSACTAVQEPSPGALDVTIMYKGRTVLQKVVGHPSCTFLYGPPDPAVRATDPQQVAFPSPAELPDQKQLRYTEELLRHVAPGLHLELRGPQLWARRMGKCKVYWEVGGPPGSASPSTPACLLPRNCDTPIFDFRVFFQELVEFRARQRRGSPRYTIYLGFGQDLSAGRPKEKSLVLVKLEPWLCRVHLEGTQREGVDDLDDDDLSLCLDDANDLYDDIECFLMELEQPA
TTAGGTATCGGCATCGGTTAGTGCTAG: 0.257 z-score
TTAGGTATCCTGCTGCTTTAGTGCTAG: 0.503 z-score
ACCAGTTTTCTTTTCATTACGTGCTAG: 5.08 z-score
TTAAGTATCGACACTGGGTTAGTGCTA: -0.106 z-score
CAAACACTAGTTTTTACTTTGTGCTAG: 0.788 z-score
TTAGGCTTCCTACTGCTTTAGTGCTAG: 0.528 z-score
GACGGACTGGACACTCGGGACGTGCTA: -0.587 z-score
TCACGTCTCTATCAAAAACTGTGCTAG: 0.933 z-score
GGTACAAACTTGTAATTATAGTGCTAG: -0.277 z-score
TTAGGTATCTGTATCGGTTAGTGCTAG: 0.696 z-score
GACGATATCAGTCTCGCGACGTGCTAG: 0.311 z-score
TCAACTTTTTTTTTTCCACTGTGCTAG: 1.65 z-score
GACGGTATCGACTATCGGGGCGTGCTA: -0.306 z-score
GACGAATTCAGTCTCGAGACGTGCTAG: 0.371 z-score
TTAGGTCTCGGGTATCGGTTAGTGCTA: 0.582 z-score
TCATCTTTCCTTCTTGAACTGTGCTAG: 3.03 z-score
TGCCCTCTAACTTCCCAATGGTGCTAG: 1.1 z-score
TCAGGAGTGTTTCTCAGACTGTGCTAG: -0.113 z-score
CACGGACTGCTACTGCTGACGTGCTAG: -0.223 z-score
TTAGACTTCGGGACTGGATTAGTGCTA: -0.571 z-score
CTAGAACTGAGTATCGATTAGTGCTAG: -0.209 z-score
GACGGTCTCTGACTGGGGACGTGCTAG: -0.548 z-score

Set 4
Target: Histone acetyltransferase KAT6A, winged helix 1, GST fusion (KAT6A, Homo sapiens, UniProt Q92794, residues 1-85)
Method: protein binding microarray
Form: double-stranded DNA, one strand shown
Sample: in vitro
Concentration: not given
Notes: 8-mer, flanks averaged, mean of 2 arrays, mostly near background
Reference: not given
Reading: higher = stronger binding
Endpoint: E-score
Target sequence (chain): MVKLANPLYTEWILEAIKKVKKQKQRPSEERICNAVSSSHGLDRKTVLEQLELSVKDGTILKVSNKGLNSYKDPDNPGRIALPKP
CATTAGAA: -0.14
ATGCTGTC: -0.225
ACATTCCC: 0.0804
GCTTCCTA: -0.0212
CCGAATCG: 0.251
CGGTCTTA: 0.141
AAGGAGGT: -0.136
GAGGAAGA: -0.216
ATCTAGTC: -0.309
AACGGCAC: 0.213
AAACTTGC: 0.0226
GATTAAGA: -0.11
AGTCGTGG: -0.141
GCTATTCA: -0.0714
CCGAGGTA: -0.0476
CGTCGTGC: 0.171
CATTGACG: -0.0026
GGATCGTA: 0.00718
TTACGAAA: -0.173
GGCCCGCA: 0.218
CGGTTGGC: 0.102
